Results from different studies.
Each line is one published result; not all experiments were run side by side.

Structure (SMILES)	test	test system	setting	how to read	quantity	value
COc1cccc(OC)c1-c1cc(C(=O)NC2(C(=O)O)C3CC4CC(C3)CC2C4)nn1-c1ccc(C(=O)N(C)CCCN(C)CCCN(C)C(=O)[C@H](CCCCNC(=O)[C@H](CC(C)C)NC(=O)C2OC2C(=O)O)NC(=O)CN2CCN(CC(=O)[O-])CCN(CC(=O)[O-])CCN(CC(=O)[O-])CC2)cc1C(C)C.[177Lu+3] (mixture of isomers)		mouse, HT-29 xenograft, kidney	4 h post injection		tissue uptake	10.3 %ID/g
O=C(Nc1cnccc1-c1ccc([18F])nc1)c1ccnc(NC(=O)C2CC2)c1		FVB/NJ mouse, both sexes, liver	intravenous, 40 min, together with: tariquidar 15 mg/kg iv		SUV	8.67
CN(Cc1ccccc1)C(=O)CN1CCN(CC(=O)[O-])CCN(Cc2cccc(C(=O)[O-])n2)CC1.[18F-].[Sc+3]		mouse, stomach	intravenous, 1 h		tracer uptake	0.08 %ID/g
O=C(C1CCN(c2nnnn2-c2ccccc2)CC1)N1CCCc2ccccc21	equilibrium dialysis	mouse, plasma			unbound fraction	10%
CC[C@H](C)[C@@H]1NC(=O)[C@H](Cc2ccc(O)cc2)NC(=O)CCCSC[C@@H](C(=O)N(CC(=O)N[C@@H](CC(C)C)C(=O)NCC(N)=O)Cc2ccc(F)cc2)NC(=O)[C@H](CC(N)=O)NC(=O)[C@H](CCC(N)=O)NC1=O		human	intranasal, 400 µg single dose		severe adverse events	0%
Cc1cc(-c2ccc(C(=O)[C@@H]3CCCC[C@H]3C(=O)Nc3cnn4c3C(=O)NCC4)cc2)[nH]n1		human, urine	oral, 200 mg, 168-192 h	relative to: dose	recovery of radioactivity per interval	< 0.01%
O=C(Nc1cnccc1-c1ccc([18F])cc1)c1ccnc(NC(=O)C2CC2)c1	ex vivo gamma counting	GSK-3β transgenic mice, late-stage, stomach	intravenous, 1.26 MBq/animal, 120 min, mean, no P-gp inhibitor		SUV	1.22
COc1ccc2c(c1)C(C)(C)C(/C=C/C1=C(Oc3ccc(C(=O)NCCCCOc4cc(CN(Cc5ccccn5)Cc5ccccn5)cc(CN(Cc5ccccn5)Cc5ccccn5)c4)cc3)C(=C/C=C3/N(CCCCS(=O)(=O)[O-])c4ccc(OC)cc4C3(C)C)CCC1)=[N+]2CCCCS(=O)(=O)[O-].O=[N+]([O-])[O-].O=[N+]([O-])[O-].[99Tc+].[C-]#[O+].[C-]#[O+].[C-]#[O+].[Zn+2]		mouse, kidney	12 h		tracer uptake	1.76 %ID/g
O=C([O-])CN1CCN(CC(=O)[O-])CCN(Cc2cccc(C(=O)[O-])n2)CC1.[44Sc+3]		mouse, heart	intravenous, 1 h		tracer uptake	0.41 %ID/g
O=C1CCC(N2Cc3cc(C(=O)O)c(F)cc3C2=O)C(=O)N1 (stereo not drawn)		male CD-1 mouse, plasma	intravenous, 1 mg/kg, 1 h		concentration	69 ng/mL
C/C(N)=N/C(=N\S(=O)(=O)c1ccc(C(F)(F)F)cc1)N1C[C@H](c2ccccc2)C(c2ccc(Cl)cc2)=N1		C57BL/6 mouse, adipose tissue	intravenous, 10 mg/kg		AUC(0-inf)	59700 ng·h/mL
C=C(NC(=O)c1csc(-c2nc3c(cc2O)-c2nc(cs2)C(=O)NC(C(C)O)C(=O)NC(=C(C)OC)c2nc(cs2)C(=O)NC2c4nc(cs4)C(=O)NC(COC(=O)c4c5c6c(cccc6n4O)COC(=O)C(OC4CC(C)(O)C(N(C)C)C(C)O4)C2OC5)c2nc-3cs2)n1)C(N)=O (stereo not drawn)		Sprague-Dawley rats, female, plasma	intravenous infusion, 6 mg/kg, day 1, multiple dosing		AUC(0-t)	2050 ng·h/mL

Excerpt of the above:
Structure (SMILES)	test	test system	setting	how to read	quantity	value
COc1cccc(OC)c1-c1cc(C(=O)NC2(C(=O)O)C3CC4CC(C3)CC2C4)nn1-c1ccc(C(=O)N(C)CCCN(C)CCCN(C)C(=O)[C@H](CCCCNC(=O)[C@H](CC(C)C)NC(=O)C2OC2C(=O)O)NC(=O)CN2CCN(CC(=O)[O-])CCN(CC(=O)[O-])CCN(CC(=O)[O-])CC2)cc1C(C)C.[177Lu+3] (mixture of isomers)		mouse, HT-29 xenograft, kidney	4 h post injection		tissue uptake	10.3 %ID/g
